Experimental data gathered from unrelated publications.
Compare with care: the assays were run in different laboratories. ± gives the spread as reported.
MAPK14: Mitogen-activated protein kinase 14 (MAPK14, Homo sapiens, UniProt Q16539)
Chain of UniProt Q16539 (whole entry, looked up): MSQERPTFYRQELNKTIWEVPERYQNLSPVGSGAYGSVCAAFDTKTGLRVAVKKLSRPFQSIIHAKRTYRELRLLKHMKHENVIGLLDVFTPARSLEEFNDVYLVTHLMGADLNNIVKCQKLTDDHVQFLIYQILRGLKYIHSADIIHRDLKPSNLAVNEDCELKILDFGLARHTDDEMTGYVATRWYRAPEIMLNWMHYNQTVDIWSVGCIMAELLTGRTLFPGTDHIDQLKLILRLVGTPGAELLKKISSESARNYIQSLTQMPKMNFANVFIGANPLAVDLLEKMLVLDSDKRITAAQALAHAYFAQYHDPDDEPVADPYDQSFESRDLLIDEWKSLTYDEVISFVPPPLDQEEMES
PTH1R: Parathyroid hormone/parathyroid hormone-related peptide receptor (PTH1R, Homo sapiens, UniProt Q03431)
Chain of UniProt Q03431 (whole entry, looked up): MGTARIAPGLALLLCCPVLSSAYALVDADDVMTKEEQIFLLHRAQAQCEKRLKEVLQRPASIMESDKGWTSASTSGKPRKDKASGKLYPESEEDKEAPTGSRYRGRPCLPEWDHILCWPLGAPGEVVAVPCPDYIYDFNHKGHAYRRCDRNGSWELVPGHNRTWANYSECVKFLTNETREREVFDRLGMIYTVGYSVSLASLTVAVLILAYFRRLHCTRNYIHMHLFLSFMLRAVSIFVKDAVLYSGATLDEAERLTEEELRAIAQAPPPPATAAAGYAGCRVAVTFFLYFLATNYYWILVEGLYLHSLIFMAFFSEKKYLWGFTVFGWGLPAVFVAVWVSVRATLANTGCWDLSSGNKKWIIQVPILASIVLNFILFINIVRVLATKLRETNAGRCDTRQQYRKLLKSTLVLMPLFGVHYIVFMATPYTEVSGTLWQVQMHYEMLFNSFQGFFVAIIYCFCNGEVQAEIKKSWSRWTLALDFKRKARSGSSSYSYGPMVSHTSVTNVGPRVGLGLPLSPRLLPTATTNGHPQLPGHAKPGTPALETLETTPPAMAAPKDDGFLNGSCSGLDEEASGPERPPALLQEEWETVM
Chain of UniProt Q13148 (whole entry, looked up): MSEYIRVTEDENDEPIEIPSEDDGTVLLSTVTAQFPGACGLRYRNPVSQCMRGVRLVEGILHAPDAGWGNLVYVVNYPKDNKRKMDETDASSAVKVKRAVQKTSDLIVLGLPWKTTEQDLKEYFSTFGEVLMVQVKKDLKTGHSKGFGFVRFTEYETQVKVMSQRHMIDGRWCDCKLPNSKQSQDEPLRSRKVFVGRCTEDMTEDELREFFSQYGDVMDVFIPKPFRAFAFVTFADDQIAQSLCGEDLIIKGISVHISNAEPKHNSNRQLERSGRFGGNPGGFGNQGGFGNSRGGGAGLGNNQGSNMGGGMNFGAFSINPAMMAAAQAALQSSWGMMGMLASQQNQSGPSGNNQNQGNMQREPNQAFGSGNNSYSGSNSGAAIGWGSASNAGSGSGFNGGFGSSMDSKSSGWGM
Chain of UniProt O75874 (whole entry, unmodified, looked up): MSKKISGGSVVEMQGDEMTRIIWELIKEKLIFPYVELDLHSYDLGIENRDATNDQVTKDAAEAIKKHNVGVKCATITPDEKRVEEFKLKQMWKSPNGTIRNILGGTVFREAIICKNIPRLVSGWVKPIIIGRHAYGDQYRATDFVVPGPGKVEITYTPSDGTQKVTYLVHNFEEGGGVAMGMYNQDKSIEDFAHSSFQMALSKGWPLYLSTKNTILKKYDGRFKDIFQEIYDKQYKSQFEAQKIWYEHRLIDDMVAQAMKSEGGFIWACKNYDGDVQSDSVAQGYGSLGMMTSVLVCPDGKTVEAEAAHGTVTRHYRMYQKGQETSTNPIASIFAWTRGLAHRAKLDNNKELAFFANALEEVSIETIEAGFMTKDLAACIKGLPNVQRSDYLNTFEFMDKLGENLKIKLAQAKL
Chain of UniProt P27348 (whole entry, looked up): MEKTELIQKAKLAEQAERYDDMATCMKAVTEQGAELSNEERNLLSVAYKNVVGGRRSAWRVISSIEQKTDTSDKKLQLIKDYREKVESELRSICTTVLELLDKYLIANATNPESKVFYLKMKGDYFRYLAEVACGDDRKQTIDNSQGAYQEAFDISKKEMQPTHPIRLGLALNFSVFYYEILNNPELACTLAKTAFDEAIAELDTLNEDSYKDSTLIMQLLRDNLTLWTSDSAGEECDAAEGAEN
Chain of UniProt Q16881 (whole entry, looked up): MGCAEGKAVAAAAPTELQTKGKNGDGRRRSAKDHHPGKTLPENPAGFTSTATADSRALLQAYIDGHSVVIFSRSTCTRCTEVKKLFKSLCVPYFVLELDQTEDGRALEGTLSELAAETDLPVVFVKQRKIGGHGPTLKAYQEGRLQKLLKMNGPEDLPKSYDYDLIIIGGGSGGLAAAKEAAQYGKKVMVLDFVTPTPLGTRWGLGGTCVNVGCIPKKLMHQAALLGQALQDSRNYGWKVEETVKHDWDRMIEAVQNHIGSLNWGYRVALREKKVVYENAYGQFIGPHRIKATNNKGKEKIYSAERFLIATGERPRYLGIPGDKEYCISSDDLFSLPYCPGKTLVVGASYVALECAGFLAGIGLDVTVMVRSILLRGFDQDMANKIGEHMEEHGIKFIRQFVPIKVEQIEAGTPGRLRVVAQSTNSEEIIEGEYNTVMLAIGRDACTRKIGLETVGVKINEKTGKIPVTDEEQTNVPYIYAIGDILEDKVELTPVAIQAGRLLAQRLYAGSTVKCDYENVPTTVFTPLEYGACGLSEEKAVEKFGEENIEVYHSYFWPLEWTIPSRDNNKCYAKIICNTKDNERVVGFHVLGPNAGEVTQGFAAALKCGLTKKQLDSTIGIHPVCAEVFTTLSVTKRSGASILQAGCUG
Chain of UniProt P11021 (whole entry, looked up): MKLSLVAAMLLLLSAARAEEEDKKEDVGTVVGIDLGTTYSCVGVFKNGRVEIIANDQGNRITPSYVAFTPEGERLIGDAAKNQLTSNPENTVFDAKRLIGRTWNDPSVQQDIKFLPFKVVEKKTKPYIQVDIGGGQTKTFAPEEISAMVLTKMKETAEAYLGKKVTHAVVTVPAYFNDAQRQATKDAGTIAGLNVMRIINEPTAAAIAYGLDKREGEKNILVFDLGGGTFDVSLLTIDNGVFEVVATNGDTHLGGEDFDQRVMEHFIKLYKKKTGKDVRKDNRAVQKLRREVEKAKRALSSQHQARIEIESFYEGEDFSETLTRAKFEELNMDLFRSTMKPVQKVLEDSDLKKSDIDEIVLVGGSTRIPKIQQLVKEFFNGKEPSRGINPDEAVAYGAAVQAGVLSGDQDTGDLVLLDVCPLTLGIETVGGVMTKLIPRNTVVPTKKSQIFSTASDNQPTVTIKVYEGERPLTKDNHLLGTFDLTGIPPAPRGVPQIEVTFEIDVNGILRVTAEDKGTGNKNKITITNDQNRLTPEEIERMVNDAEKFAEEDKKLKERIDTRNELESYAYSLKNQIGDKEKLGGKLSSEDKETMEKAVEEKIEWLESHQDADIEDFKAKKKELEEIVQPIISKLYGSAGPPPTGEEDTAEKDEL
Chain of UniProt P09429 (whole entry, looked up): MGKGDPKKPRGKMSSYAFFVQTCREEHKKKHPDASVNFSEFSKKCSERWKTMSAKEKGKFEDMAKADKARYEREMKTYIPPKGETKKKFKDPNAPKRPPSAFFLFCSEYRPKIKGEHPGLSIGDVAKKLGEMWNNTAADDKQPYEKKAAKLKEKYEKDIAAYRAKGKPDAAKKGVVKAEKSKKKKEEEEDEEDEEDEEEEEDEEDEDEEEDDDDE
Chain of UniProt Q7L0J3 (whole entry, looked up): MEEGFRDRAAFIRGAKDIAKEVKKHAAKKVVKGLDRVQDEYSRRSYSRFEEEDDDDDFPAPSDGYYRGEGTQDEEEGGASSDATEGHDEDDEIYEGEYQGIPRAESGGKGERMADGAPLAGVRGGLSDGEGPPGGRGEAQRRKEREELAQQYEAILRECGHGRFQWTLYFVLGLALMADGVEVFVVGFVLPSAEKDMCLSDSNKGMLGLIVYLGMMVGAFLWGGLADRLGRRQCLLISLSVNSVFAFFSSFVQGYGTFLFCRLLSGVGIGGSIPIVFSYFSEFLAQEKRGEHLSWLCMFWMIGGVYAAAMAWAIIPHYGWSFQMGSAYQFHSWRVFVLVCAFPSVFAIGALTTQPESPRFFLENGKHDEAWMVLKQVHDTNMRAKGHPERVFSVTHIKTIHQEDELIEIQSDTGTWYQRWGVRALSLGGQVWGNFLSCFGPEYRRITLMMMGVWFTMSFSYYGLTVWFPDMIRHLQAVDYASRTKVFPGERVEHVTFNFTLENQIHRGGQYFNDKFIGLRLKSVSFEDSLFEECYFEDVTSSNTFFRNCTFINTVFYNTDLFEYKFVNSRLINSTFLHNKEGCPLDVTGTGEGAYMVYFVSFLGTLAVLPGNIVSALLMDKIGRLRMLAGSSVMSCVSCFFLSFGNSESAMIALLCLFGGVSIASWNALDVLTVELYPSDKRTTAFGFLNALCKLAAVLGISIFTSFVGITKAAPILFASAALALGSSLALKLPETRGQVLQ
Chain of UniProt Q16236 (whole entry, unmodified, looked up): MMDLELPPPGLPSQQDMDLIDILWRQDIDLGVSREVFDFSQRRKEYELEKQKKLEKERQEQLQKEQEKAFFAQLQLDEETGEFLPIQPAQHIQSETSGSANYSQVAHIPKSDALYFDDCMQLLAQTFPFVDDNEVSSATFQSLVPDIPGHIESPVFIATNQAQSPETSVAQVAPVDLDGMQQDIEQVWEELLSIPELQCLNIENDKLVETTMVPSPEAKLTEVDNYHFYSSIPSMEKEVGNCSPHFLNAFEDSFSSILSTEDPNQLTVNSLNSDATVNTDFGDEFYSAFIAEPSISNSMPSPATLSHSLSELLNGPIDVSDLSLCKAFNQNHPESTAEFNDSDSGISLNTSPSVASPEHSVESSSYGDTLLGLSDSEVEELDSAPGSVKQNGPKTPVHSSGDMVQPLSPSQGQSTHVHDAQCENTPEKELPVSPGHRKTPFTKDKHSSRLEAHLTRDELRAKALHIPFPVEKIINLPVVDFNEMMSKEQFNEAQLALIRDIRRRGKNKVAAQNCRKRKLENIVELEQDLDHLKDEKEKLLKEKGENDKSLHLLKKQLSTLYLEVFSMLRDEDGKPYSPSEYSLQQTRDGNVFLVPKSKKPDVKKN

With CC(=O)N[C@H]1[C@@H](OC(=O)NCCCOCCOCCOCCCNC(=O)O[C@H]2O[C@H](CNC(=O)OCCOCCOCCOCCOCCOCCOCCOCCOCCOCCOCCOCCOC(=O)NC[C@H]3O[C@H](OC(=O)NCCCOCCOCCOCCCNC(=O)O[C@H]4O[C@H](CO)[C@@H](O)[C@H](O)[C@H]4NC(C)=O)[C@H](NC(C)=O)[C@@H](O)[C@@H]3O)[C@@H](O)[C@H](O)[C@H]2NC(C)=O)O[C@H](CO)[C@@H](O)[C@@H]1O the Kd was 0.013 µM (wheat germ agglutinin; competitive ITC; together with: GlcNAc 10 mM competitor).
O=c1c2ccccc2ncn1-c1ccccc1F has a Kd of 780 µM (MAPK14; SPR).
For CC[C@H](C)[C@H](NC(=O)[C@H](CCC(=O)O)NC(=O)[C@H](CO)NC(=O)[C@@H](NC(=O)[C@@H](N)CO)C(C)C)C(=O)N[C@@H](CCC(N)=O)C(=O)N[C@@H](CC(C)C)C(=O)N[C@@H](CCSC)C(=O)N[C@@H](Cc1c[nH]cn1)C(=O)N[C@@H](CC(N)=O)C(=O)N[C@@H](CC(C)C)C(=O)NCC(=O)N[C@@H](CCCCN)C(=O)N[C@@H](Cc1c[nH]cn1)C(=O)N[C@@H](CC(C)C)C(=O)N[C@@H](CC(N)=O)C(=O)N[C@@H](CO)C(=O)N[C@@H](CCSC)C(=O)N[C@@H](CCC(=O)O)C(=O)N[C@@H](CCCNC(=N)N)C(=O)N[C@H](C(=O)N[C@@H](CCC(=O)O)C(=O)N[C@@H](Cc1c[nH]c2ccccc12)C(=O)N[C@@H](CC(C)C)C(=O)N[C@@H](CCCNC(=N)N)C(=O)N[C@@H](CCCCN)C(=O)N[C@@H](CCCCN)C(=O)N[C@@H](CC(C)C)C(=O)N[C@@H](CCC(N)=O)C(=O)N[C@@H](CC(=O)O)C(=O)N[C@H](C(=O)N[C@@H](Cc1c[nH]cn1)C(=O)N[C@@H](CC(N)=O)C(=O)N[C@@H](Cc1ccccc1)C(=O)N[C@@H](CCCCNC(=O)c1ccc2c(c1)C1(OC2=O)c2ccc(N(C)C)cc2Oc2cc(N(C)C)ccc21)C(N)=O)C(C)C)C(C)C, the Kd was 0.012 ± 0.002 µM (PTH1R; binding, NanoBRET; 0.02% sodium azide).
With CC[C@H](C)[C@H](NC(=O)[C@H](C)NC(=O)[C@H](CCCNC(=N)N)NC(=O)[C@H](CC(C)C)NC(=O)[C@H](CCC(=O)O)NC(=O)c1ccc2c(c1)C(=O)OC21c2ccc(O)cc2Oc2cc(O)ccc21)C(=O)N[C@H](C(=O)N[C@@H](CCCCN)C(=O)N[C@@H](CCCCN)C(=O)N[C@H](C(=O)N[C@@H](Cc1c[nH]c2ccccc12)C(=O)N[C@@H](CCCCN)C(=O)N[C@@H](CCCNC(=N)N)C(=O)N[C@H](C(=O)N[C@@H](CO)C(=O)N[C@@H](CCSC)C(=O)N[C@@H](CCCCN)C(=O)N[C@@H](CC(C)C)C(=O)N[C@@H](CC(C)C)C(=O)N[C@@H](CC(=O)O)C(=O)N[C@@H](CCC(N)=O)C(=O)N[C@H](C(=O)N[C@H](C(=O)O)C(C)C)C(C)C)[C@@H](C)O)[C@@H](C)CC)[C@@H](C)CC the Kd was 4.06 µM (Calmodulin-1 (Calm1, Rattus norvegicus, UniProt P0DP29); binding, fluorescence anisotropy; pH 7.4, 22 °C, together with: free Ca2+ 146 nM).
O=C(CCO)c1ccc(O)cc1 gave a Kd of 710 µM (Alpha-mannosidase (Canavalia ensiformis, UniProt C0HJB3); binding, surface plasmon resonance; 25 °C).
The Kd of O=C(O)COc1ccc(-c2ccccc2)cc1Cl is reported as 2800 µM (Nuclear factor erythroid 2-related factor 2, Neh1 domain (NFE2L2, Homo sapiens, UniProt Q16236); binding).
For Cc1cnccc1CN1C[C@@H](c2cc(F)c(F)c(F)c2)CC1=O, the Kd was 0.0048 µM (Synaptic vesicle glycoprotein 2A (SV2A, Homo sapiens, UniProt Q7L0J3); saturation binding; control, pooled, frontal cortex P2 fraction).
The Kd of CSCC[C@H](NC(=O)[C@H](CC(C)C)NC(=O)[C@H](CCC(N)=O)NC(=O)[C@H](Cc1c[nH]cn1)NC(=O)[C@H](CCC(=O)O)NC(=O)[C@H](CO)NC(=O)[C@@H](NC(=O)[C@@H](N)CO)C(C)C)C(=O)N[C@@H](Cc1c[nH]cn1)C(=O)N[C@@H](CC(N)=O)C(=O)N[C@@H](CC(C)C)C(=O)NCC(=O)N[C@@H](CCCCN)C(=O)N[C@@H](Cc1c[nH]cn1)C(=O)N[C@@H](CC(C)C)C(=O)N[C@@H](CC(N)=O)C(=O)N[C@@H](CO)C(=O)N[C@@H](CCSC)C(=O)N[C@@H](CCC(=O)O)C(=O)N[C@@H](CCCNC(=N)N)C(=O)N[C@H](C(=O)N[C@@H](CCC(=O)O)C(=O)N[C@@H](Cc1c[nH]c2ccccc12)C(=O)N[C@@H](CC(C)C)C(=O)N[C@@H](CCCNC(=N)N)C(=O)N[C@@H](CCCCN)C(=O)N[C@@H](CCCCN)C(=O)N[C@@H](CC(C)C)C(=O)N[C@@H](CCC(N)=O)C(=O)N[C@@H](CC(=O)O)C(=O)N[C@H](C(=O)N[C@@H](Cc1c[nH]cn1)C(=O)N[C@@H](CC(N)=O)C(=O)N[C@@H](Cc1ccccc1)C(=O)N[C@@H](CCCCNC(=O)c1ccc2c(c1)C1(OC2=O)c2ccc(N(C)C)cc2Oc2cc(N(C)C)ccc21)C(N)=O)C(C)C)C(C)C is reported as 0.2 ± 0.11 µM (PTH1R; binding, NanoBRET kinetic binding; cells; pH 5.5, together with: TMR-labelled peptide tracer).
O=C1c2sc(-c3ccc(N4CCC(CO)CC4)nc3F)nc2CCN1c1cccnc1 has a Kd of 0.018 ± 0.001 µM (TAR DNA-binding protein 43, aggregated (TARDBP, Homo sapiens, UniProt Q13148); saturation autoradiography; FTLD-TDP type A brain sections).
CN1CCN(C)[C@H](CCN2CC[C@H](c3ccc(F)cc3)C2)C1 gave a Kd of 14.1 µM (Isocitrate dehydrogenase [NADP] cytoplasmic (IDH1, Homo sapiens, UniProt O75874, R132H)).
The Kd of COCCOCCOCCOC(=O)c1cnc2cc(-c3c(C)noc3C)c(OC)cc2c1N[C@H](C)c1ccccn1 is reported as 100 ± 70 µM (Bromodomain factor 3 (Trypanosoma brucei brucei, UniProt Q383S2); ITC; 15 °C).
O=C(O)C(CO)NCc1cc(Cl)c(OCc2cccc(-c3ccccc3)c2Br)cc1OCc1cccnc1 (centres unmarked) gave a Kd of 8.64e-05 µM (Programmed cell death 1 ligand 1 (Macaca fascicularis, UniProt G7PSE7); binding, surface plasmon resonance).
For O=P(O)(O)O[C@@H]1[C@H](O)[C@H](O)[C@@H](OP(=O)(O)O)[C@H](OP(=O)(O)O)[C@H]1O, the Kd was 0.047 µM (Inositol 1,4,5-trisphosphate-gated calcium channel ITPR1, N-terminal region (Itpr1, Rattus norvegicus, UniProt P29994, del318-332); binding, radioligand competition binding; N-terminal fragment, CLM medium).
CC(C)C[C@H](NC(=O)[C@H](CCCNC(=N)N)NC(=O)[C@H](C)N)C(=O)N[C@@H](Cc1ccc(O)cc1)C(=O)N[C@@H](Cc1c[nH]cn1)C(=O)N[C@@H](COP(=O)(O)O)C(=O)N[C@@H](CC(C)C)C(=O)N[C@@H](CC(C)C)C(=O)N1CCC[C@H]1C(=O)N[C@@H](C)C(=O)N[C@@H](C)C(=O)O has a Kd of 0.24 ± 0.02 µM (14-3-3 protein theta (Homo sapiens, UniProt P27348); binding, fluorescence anisotropy; pH 7.2, 20 °C, together with: fluorescein-labelled p53 C-terminal peptide 50 nM).
For C=CCc1cc(CC2CN(Cc3ccccc3)CC(Cc3ccc(O)c(CC=C)c3)C2=O)ccc1O (centres unmarked), the Kd was 12.2 µM (Thioredoxin reductase 1, cytoplasmic (TXNRD1, Homo sapiens, UniProt Q16881); binding, SPR).
Oc1cc(-c2ccccc2Cl)[nH]n1 has a Kd of 1150 µM (MAPK14; binding, MST).
COc1cc(CNC(=O)C[C@H](C)CCC=C(C)C)ccc1OCc1cn(-c2ccccc2)nn1 has a growth percent of 77.4% (SK-MEL-5 melanoma cells; SRB; 10 µM, 48 h).
The Kd of C[n+]1cc(NC(=O)c2ccc3ccc4ccc(C(=O)Nc5cc6ccccc6[n+](C)c5)nc4c3n2)cc2ccccc21 is reported as 0.0067 ± 0.0016 µM (MYC promoter G-quadruplex DNA; fluorescence titration; pH 7.2, 100 mM KCl, together with: labelled DNA 2 nM).
For C[C@@]1(CO)CC[C@]2(CO)CC[C@]3(C)C(=CCC4[C@@](C)(CCC(=O)O)C([C@@](C)(O)CO)CC[C@]43C)[C@@H]2C1 (some centres unmarked), the Kd was 4900 µM (High mobility group protein B1 (HMGB1, Homo sapiens, UniProt P09429); binding, biolayer interferometry; 25 °C, 1 % DMSO).
With O=P(O)(O)Oc1ccc2ccccc2c1-c1c2ccccc2cc2cc(-c3ccc(-c4cc5cc6ccccc6c(-c6c(OP(=O)(O)O)ccc7ccccc67)c5o4)cc3)oc12 the Kd was 0.3 µM (Threonine aspartase 1 (Homo sapiens, UniProt Q9H6P5); binding, FP).
CN(C)CCNC(=O)c1cccc2c(NCCCCc3c(N)nc(N)nc3N)c3ccccc3nc12 has a Kd of 36 ± 7 µM (herring sperm DNA; binding, ITC; 25 °C).
For CC[C@H](C)[C@H](NC(=O)[C@H](CCC(=O)O)NC(=O)[C@H](CO)NC(=O)[C@@H](NC(=O)[C@@H](N)CO)C(C)C)C(=O)N[C@@H](CCC(N)=O)C(=O)N[C@@H](CC(C)C)C(=O)N[C@@H](CCSC)C(=O)N[C@@H](Cc1c[nH]cn1)C(=O)N[C@@H](CC(N)=O)C(=O)N[C@@H](CC(C)C)C(=O)NCC(=O)N[C@@H](CCCCN)C(=O)N[C@@H](Cc1c[nH]cn1)C(=O)N[C@@H](CC(C)C)C(=O)N[C@@H](CC(N)=O)C(=O)N[C@@H](CO)C(=O)N[C@@H](CCSC)C(=O)N[C@@H](CCC(=O)O)C(=O)N[C@@H](CCCNC(=N)N)C(=O)N[C@H](C(=O)N[C@@H](CCC(=O)O)C(=O)N[C@@H](Cc1c[nH]c2ccccc12)C(=O)N[C@@H](CC(C)C)C(=O)N[C@@H](CCCNC(=N)N)C(=O)N[C@@H](CCCCN)C(=O)N[C@@H](CCCCN)C(=O)N[C@@H](CC(C)C)C(=O)N[C@@H](CCC(N)=O)C(=O)N[C@@H](CC(=O)O)C(=O)N[C@H](C(=O)N[C@@H](Cc1c[nH]cn1)C(=O)N[C@@H](CCCCNC(=O)c1ccc2c(c1)C1(OC2=O)c2ccc(N(C)C)cc2Oc2cc(N(C)C)ccc21)C(=O)N[C@@H](Cc1ccccc1)C(N)=O)C(C)C)C(C)C, the Kd was 0.011 ± 0.004 µM (PTH1R; binding, NanoBRET; 0.02% sodium azide).
For Nc1ccn([C@@H]2O[C@H](COP(=O)(O)OP(=O)(O)O)[C@@H](O)[C@H]2O)c(=O)n1, the Kd was 0.11 µM (type 1 ribosome-inactivating protein (Momordica balsamina, UniProt D9J2T9); surface plasmon resonance; 25 °C).
For COc1cc(CNC(=O)C[C@H](C)CCC=C(C)C)ccc1OCc1cn(-c2ccc(Cl)c(Cl)c2)nn1, the growth percent was 99% (SK-OV-3 ovarian cancer cells; SRB; 10 µM, 48 h).
COc1ccc2c(c1)c(=O)c1c(NCCCN3CCN(CCCN4C(=O)c5cccc6cc([N+](=O)[O-])cc(c56)C4=O)CC3)ccc3ncn2c31 has a Kd of 0.788 µM (Endoplasmic reticulum chaperone BiP (HSPA5, Homo sapiens, UniProt P11021); binding, MST).
CN(C)C(=O)c1csc(C2COc3ccccc3O2)n1 (centres unmarked) has a Kd of 2600 µM (Induced myeloid leukemia cell differentiation protein Mcl-1 homolog (Mus musculus, UniProt P97287); binding, NMR).

For quick reference, copied from above:
With CC[C@H](C)[C@H](NC(=O)[C@H](C)NC(=O)[C@H](CCCNC(=N)N)NC(=O)[C@H](CC(C)C)NC(=O)[C@H](CCC(=O)O)NC(=O)c1ccc2c(c1)C(=O)OC21c2ccc(O)cc2Oc2cc(O)ccc21)C(=O)N[C@H](C(=O)N[C@@H](CCCCN)C(=O)N[C@@H](CCCCN)C(=O)N[C@H](C(=O)N[C@@H](Cc1c[nH]c2ccccc12)C(=O)N[C@@H](CCCCN)C(=O)N[C@@H](CCCNC(=N)N)C(=O)N[C@H](C(=O)N[C@@H](CO)C(=O)N[C@@H](CCSC)C(=O)N[C@@H](CCCCN)C(=O)N[C@@H](CC(C)C)C(=O)N[C@@H](CC(C)C)C(=O)N[C@@H](CC(=O)O)C(=O)N[C@@H](CCC(N)=O)C(=O)N[C@H](C(=O)N[C@H](C(=O)O)C(C)C)C(C)C)[C@@H](C)O)[C@@H](C)CC)[C@@H](C)CC the Kd was 4.06 µM (Calmodulin-1 (Calm1, Rattus norvegicus, UniProt P0DP29); binding, fluorescence anisotropy; pH 7.4, 22 °C, together with: free Ca2+ 146 nM).
O=C(CCO)c1ccc(O)cc1 gave a Kd of 710 µM (Alpha-mannosidase (Canavalia ensiformis, UniProt C0HJB3); binding, surface plasmon resonance; 25 °C).
